Experimental data gathered from unrelated publications.
Every numbered part comes from another study and shows a few of its results, in no order.

Set 1
Target: Histone acetyltransferase KAT6A, winged helix 1, GST fusion (KAT6A, Homo sapiens, UniProt Q92794, residues 1-85)
Technique: protein binding microarray
Form: double-stranded DNA, one strand shown
Medium: in vitro
Tested at: not given
Notes: 8-mer, flanks averaged, mean of 2 arrays, mostly near background
Relative to: not given
Direction: higher = stronger binding
Quantity: E-score
Residues (chain): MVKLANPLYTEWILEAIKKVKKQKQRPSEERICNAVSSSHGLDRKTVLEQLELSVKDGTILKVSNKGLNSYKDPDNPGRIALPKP
ATTTCCGC: 0.231
AACGGAAA: 0.159
ATTTTGGC: 0.0124
CGGACGGA: 0.278
CTAAAGGC: -0.0541
CCCTCTAG: -0.121
AGCCCCGA: 0.0593
ATGGGGTA: -0.126
AATCCATT: -0.2
CAGCTGAG: -0.191
CTCAGACC: -0.114
AAACGCAA: 0.0433
CGTTCATA: 0.0771
GAACCACA: -0.165
ACCTTCGT: -0.11
AAAACGAT: -0.138
CGACCCGC: 0.395
CGGACACG: 0.274
ACAATCAA: -0.18
ATGGAAAT: -0.148
ATTACGCA: 0.203
CCACACGA: -0.0735
CTTTCGAC: -0.178
GGGCCTTA: 0.116
CATCAACG: -0.128

Set 2
Target: Interferon regulatory factor 7, full length, phosphomimetic (IRF7, Homo sapiens, UniProt Q92985, residues 1-503, S101K/S471D/S472D/S475D/S476D/S477D/S483D/S484D/S487D)
Sequence of UniProt Q92985 (whole entry, unmodified, looked up): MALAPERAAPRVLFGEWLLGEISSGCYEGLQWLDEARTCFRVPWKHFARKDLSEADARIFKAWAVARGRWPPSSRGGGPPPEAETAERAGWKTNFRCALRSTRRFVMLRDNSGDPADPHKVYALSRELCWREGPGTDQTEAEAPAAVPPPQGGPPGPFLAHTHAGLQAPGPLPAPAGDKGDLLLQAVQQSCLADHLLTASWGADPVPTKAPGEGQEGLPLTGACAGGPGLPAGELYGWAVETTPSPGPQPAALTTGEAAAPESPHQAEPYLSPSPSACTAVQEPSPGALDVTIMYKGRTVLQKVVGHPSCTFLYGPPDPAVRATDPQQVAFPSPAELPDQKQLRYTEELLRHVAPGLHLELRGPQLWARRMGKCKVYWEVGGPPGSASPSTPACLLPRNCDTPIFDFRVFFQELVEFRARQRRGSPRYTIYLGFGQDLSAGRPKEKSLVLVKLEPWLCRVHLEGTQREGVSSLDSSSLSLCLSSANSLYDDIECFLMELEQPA
Technique: protein-binding microarray
Form: double-stranded DNA, one strand shown
Medium: in vitro
Tested at: 250 nM
Notes: 60-bp whole probe
Together with: salmon DNA 0.4 mg/ml
Relative to: random background probes
Direction: higher = stronger binding
Quantity: log fluorescence
All sequences stand within: GCCTAGCAC … GTCTTGATTCGCTTGACGCTGCTG
GACGATATCAGTCCCGAGACGTGCTAG: 0.0671 z-score
GACGGACTGGGGTTTCGGGAAGTGCTA: -0.0171 z-score
TCATGCTTAGTATTTTTTACTGTGCTA: -0.234 z-score
GACGGACTGAGGACTGGGGACGTGCTA: -0.706 z-score
GACGATCTCAGGCTGGAGACGTGCTAG: -0.293 z-score
TTAGGGTTCGGTTTCGGTTAGTGCTAG: 10.6 z-score
GTTCAAAGTCCTACGGCTTCGTGCTAG: 0.0154 z-score
GGCCCTGTCCTTTTCTTTACGTGCTAG: -0.303 z-score
TCATGATTACATATATGACTGTGCTAG: 0.231 z-score
TTAGGTATCGATACTGGGTTAGTGCTA: 0.838 z-score
CTGCTGCAGGCAGCACGCTGGTGCTAG: -0.827 z-score
TCAGTTTTCAATTTTTGACTGTGCTAG: 1.15 z-score
TTAGAACAGGGGTATCGATTAGTGCTA: 0.372 z-score
GGCGATTCCAGTTTCGAGACGTGCTAG: 3.87 z-score
TTAGAACTGGGCACTGGATTAGTGCTA: -0.641 z-score
TCAGGTTTCCAATCAGCACTGTGCTAG: 3.58 z-score
TTAGGTTTCCTACTACTTTAGTGCTAG: 1.2 z-score
TTAGGTATCCGACTGCTTTAGTGCTAG: -0.383 z-score
TTAGGACTGGGGTATCGCTTAGTGCTA: -0.199 z-score

Set 3
Target: RNA binding protein fox-1 homolog 2, RRM domain, GST-SBP tag (RBFOX2, Homo sapiens, UniProt O43251-10, residues 100-194)
Technique: RNA Bind-n-Seq
Form: RNA
Medium: in vitro
Tested at: 365 nM
Notes: natural RNA segment, single round, ends assumed
Relative to: no-protein control
Direction: higher = stronger binding
Quantity: RBNS enrichment (R)
All sequences stand within: GGGAGUUCUACAGUCCGACGAUC … UGGAAUUCUCGGGUGCCAA
Target sequence (chain): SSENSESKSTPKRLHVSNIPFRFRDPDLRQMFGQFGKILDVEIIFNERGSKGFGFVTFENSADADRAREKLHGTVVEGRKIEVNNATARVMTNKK
UCUGGAAGCCCCAGCACCGGGGGGCUUUUGGGCACAGGGUCAGUGGUAGCCAUCUUAGACACUGACAUUUGGCUUUGUCGUCAAUUUCAUCACCCUCCUUGAGGUUACUG: 0.476
AAACAUACGUUCUUUUCAAGACUUCCUCAUGAAUCUCUCAAUUAUAGGAAAAGUUAUUGUGAUAAAAUAGGAACAGCUGAAAGAUUGAUUAAUGAACUAUUGUUAAUUCU: 0.433
GCUGCUCUAAGAAGGGGUCUCCUUUACCCUAAAGGCAGCUGGGCAGGGACAGGUGGGAGAAUGGGUGUAGGAGGCAGGCCCCAGGCUCUGCUUCUUGGUGACAGUUGGCC: 0.88
AAAGGUAGUGGUCACUGGGUCUCACAUGUUUAGCUUGCCUGCCUGGUAGGACUGGCUUCUGGCAGGGACAGGGCCUAUCCUAAGUACCUUCACCCAGUAUCACAAAGAUG: 0.845
UCCCUUCCAUCUGCCUGGUGCAGGAAGCAGGGCCGUCAUGCCAACGCGCCCAGUCCAGGAUCUGCCUCCUAUCAGGGAUCCCAACUCUGAAUUUCCUGCCACUAACAUAC: 0.392
UAUUUAUAUCUACAUUUCCUUCCAGCUGAGUCUUCAAAUUUAGCAUUAUUUUGACACUUUUAAUUUUCAUUUAACAAUGGAUUAGAAAAAUAUUUUGGUCUAGCCACUAA: 0.585
UCCUCCAGGACACCACAGUCCUUGCCCUACCACACCACAAGUAUUUGGGGGCUCAGCCCUGCCCGGUUAAGUUGACAUAUCAAGUUAACCCACUGAAGGGCUUCAGGUUU: 0.185
UCGGAGCUAAGUGUAUAUAUGAGUAGUUUGCCAAUGGAUAACACAGUGUAAACAGUAGACACCCAGAAAAUCGUGACUUCUGUGUUCUCUCCAUUUGAGUAUUUUGUAAU: 0.48
UCCAUUGUCCUUGUAGUUUCUUCCCUCCUGUUCUCUGGUUAUAGCUGGUCCCAGGUCAGCGUGGGAGGCACCUUUGGGUUCCCAGUGCCCAGCACUUUGUAGUCUCAUCC: 0.453
CAGAAGGGUACUUUCUGUGUCAUACCAUGCCACUUCUUUAAGCUCUUCAGGGCAGCCAAAGCCAGCCCUUUUCUCCUACUGCCCCCAGGAGAAAUAGCACUCUUCUCCCU: 0.311
UGCUCCAGAAAAUUUUCUAUUCUGUAAGUCUAAGGGUAAAACUUCAAGUAUUAAGAUAAUUUGUACAUGUAGAGAAAAAAAUGACUUUUUCAUAAUAUACAGGGGCAGCU: 0.589
GAUUGUACUUGGAUAAAAAACAAUAAACUUUCACUAUAAAGCCAAUGAGAUUCAUAGGCUGUACAGUAUGGGCCCUUUUCUCUUAUUUUCUUACAUUUAUUUUUAUUGUU: 0.599

Set 4
Target: Max dimerization protein 1, bHLH-zipper, MAX partner unstated (MXD1, Homo sapiens, UniProt Q05195, residues 56-136)
Technique: protein-binding microarray
Form: double-stranded DNA, one strand shown
Medium: in vitro
Tested at: not given
Notes: k-mer, scored over probes, only values ≥0.25
Direction: higher = stronger binding
Quantity: E-score
Target sequence (chain): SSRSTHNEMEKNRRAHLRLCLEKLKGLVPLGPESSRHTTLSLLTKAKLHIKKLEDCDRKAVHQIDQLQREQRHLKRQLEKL
ACGCATGC: 0.418
CCCATGCC: 0.348
AGACATGC: 0.407
CACACGCC: 0.347
ACGTGACT: 0.326
ACCCACGG: 0.271
GAACGTGC: 0.292
GGGTTTTA: 0.267
AGCATGTG: 0.436
ACCACGAG: 0.383
ACACGCGC: 0.395
ACAACGCG: 0.267
ACGTGGCG: 0.372
ACGCGCGT: 0.341
CATGTGGG: 0.46
CATGGAGG: 0.312
CTCCCCCA: 0.276
ACGGCGGG: 0.251
AGAAGGGG: 0.276
CGTGCAAA: 0.262

Set 5
Target: RING finger protein unkempt homolog, zinc fingers 1-6, GST-SBP tag (UNK, Homo sapiens, UniProt Q9C0B0, residues 30-357)
Technique: RNA Bind-n-Seq
Form: RNA
Medium: in vitro
Tested at: not given
Notes: RNA with constant flanks, human-mouse chimeric sites, ends assumed
Relative to: input RNA pool
Direction: higher = stronger binding
Quantity: bound/input enrichment
All sequences stand within: GGGAGUUCUACAGUCCGACGAUC … CAACAGAGGAUUGAGCAUCA
Residues (chain): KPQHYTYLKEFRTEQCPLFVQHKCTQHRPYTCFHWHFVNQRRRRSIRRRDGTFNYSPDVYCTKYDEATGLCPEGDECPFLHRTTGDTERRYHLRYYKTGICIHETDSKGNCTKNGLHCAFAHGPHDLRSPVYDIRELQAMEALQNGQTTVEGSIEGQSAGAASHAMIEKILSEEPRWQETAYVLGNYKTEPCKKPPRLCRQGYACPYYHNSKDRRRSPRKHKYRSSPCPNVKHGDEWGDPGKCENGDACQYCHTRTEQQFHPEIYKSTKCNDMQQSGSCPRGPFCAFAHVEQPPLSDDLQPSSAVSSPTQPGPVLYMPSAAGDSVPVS
UCUUAACUUAUUCAUUUAACUUAUUUUUAUAGCUAGAUAAAUAUUGUUAGUCUUAGAGAGUAGUUCACAUUUUUUGAGAAGCAUGCCCUCCCUAUCCAUUUGUCUUAUAACAUGACCCAG: 5.19 ratio
CGCUUGGAUGAGGCUGGUGUCACAGAUGAAGUGCUAGAUUCUGCCAUGCAAGCCUUCCUUCUGGAGGUCAUUGUUAAACAUGGGGAGCCGGCACCUUAUUUAUGUAAUAAAGAUCCUUUU: 0.142 ratio
UUAAUCCCCUUUACUGCUCCCCCACUUCUCAUGGUAAUGACAAAAACUUAUAUCCCCGUCCUAGCUUUCACUCAGAUGGCUUAUGGAGCCGGUUUCCUAGCUUUCUUGGGAGGGAUCAGA: 0.453 ratio
UAAAUUAGGGCUGCCGUUUUCUGUUUCUCCCUGGGCUGCGGAAAGCCAGAAGAUUUUAUCUAGCUUAUACAAGGCUGCUGGAGCUUGCUCCCUCCCGCCACGAGGGUGUUUUUGGCUGCA: 0.421 ratio
AAAGUGAUGACUAUGUUUGUCCAACGACAGGUAUUUUCUGAGAACAAAGAUGAGAUUGCGUUAGUCCUCUAUGGCACAGAUGGCACUGAUAAUGCCCUUGCUGGCAAGGAUCAGUAUCAG: 0.095 ratio
UUGAAAAACACAGAUAUCAAAGUUGUUGACUUUGGAAGUGCAACGUAUGACGACGAACAUCACAGUACUUUGGUGUCUACCCGGCACUACAGAGCUCCCGAGGUCAUUUUGGCUUUAGGU: 0.303 ratio
GGGACUGAUUCAUUCCAAGGACAGGCCACCCCAUUUGAUGCCUGGACUGAUGACAGUAUGUUAGGGCCUAGUCAAAAUGUUGAAGCUGAGUCAAUUCAGGAUGCCAUGAGUAUGGAAGAG: 0.522 ratio

Some of these lines once more (set 2):
GACGATATCAGTCCCGAGACGTGCTAG: 0.0671 z-score
GACGGACTGGGGTTTCGGGAAGTGCTA: -0.0171 z-score
TCATGCTTAGTATTTTTTACTGTGCTA: -0.234 z-score
GACGGACTGAGGACTGGGGACGTGCTA: -0.706 z-score
GACGATCTCAGGCTGGAGACGTGCTAG: -0.293 z-score
TTAGGGTTCGGTTTCGGTTAGTGCTAG: 10.6 z-score
GTTCAAAGTCCTACGGCTTCGTGCTAG: 0.0154 z-score
GGCCCTGTCCTTTTCTTTACGTGCTAG: -0.303 z-score
TCATGATTACATATATGACTGTGCTAG: 0.231 z-score
TTAGGTATCGATACTGGGTTAGTGCTA: 0.838 z-score
